Measurements collected from several papers.
Compare with care: the assays were run in different laboratories. ± marks the error that the study gave.

The inhibition of `Nc1ccc(C(=O)NN=Cc2ccc(OCC(=O)Nc3ccc(Cl)cc3)cc2)cc1` is reported as 80.2% (ABTS radical scavenging, ABTS; concentration not given, 6 min).
Under insulitis score, `CNc1oc(-c2cccc3ccccc23)nc1C#N` is recorded as “decreased” (NOD mice, prediabetic, pancreas; ip, 24 mg/kg daily, 2 weeks; baseline: untreated).
For `COc1c2c(cc3oc(COC4OC(CO)C(O)C(O)C4O)cc(=O)c13)OC(C(C)(C)O)C2` (stereo not shown), “hot plate latency” read 9.67 ± 1.16 s (analgesia; mouse; oral, 1 mg/kg, 1.5 h).
`COc1ccc2c(c1)c(CC(=O)OCC(=O)OC(C)(C)C)c(C)n2C(=O)c1ccc(Cl)cc1`: “latency of nociceptive response” 18.1 ± 1.02 s (hot plate test; BALB/c mice; 100 mg/kg, 60 min).
Under “ΔG‡ at 298.15 K”, `N[C@@H](CO)C(=O)N1CCC[C@H]1C(=O)NCC(=O)NCC(=O)O` is recorded as 22.2 ± 1.2 kcal/mol (diketopiperazine formation, Arrhenius plot, ESI-MS; 1-propanol; 70, 80, 90 °C, 0.5% acetic acid).
`Cc1nc(C)c(C=[N+]([O-])C(C)(C)C)nc1C` — result for “protein level increase”: 11.3% (Western blot, measured: HO-1; mouse, MPTP model, substantia nigra cytosol; 10 mg/kg).
Under protein level, `COc1cc(O)c(Cl)cc1/C=C/C(=O)c1ccc(C(F)(F)F)cc1` is recorded as “increased” (immunofluorescence, measured: ZO-1; mouse LPS acute lung injury, lung; po, dose not given).
For `O=C(NCCCCc1ccccc1)n1c(=O)oc2cc(-c3ccc(F)cc3)ccc21`, “lung ceramide levels” read “increased” (measured: ceramide d18:1/14:0, d18:1/16:0, d18:1/18:0; mouse, lung; intraperitoneal, 10 mg/kg, 3 h).
The blood glucose of `COc1ccc(C2CC(c3ccc(C)cc3)=Nc3ccccc3S2)cc1` (stereo not shown) is reported as 373 ± 4.11 mg/dL (Wistar rat, STZ-induced diabetes; oral, 10 mg/kg once daily, day 1).
With `CC(C)(O)c1ccc(N2Cc3c(ccnc3-c3ccc(F)cc3OCC(F)(F)F)C2=O)cc1` the glucosylceramide level was 50 ± 4% (mouse, plasma; 300 mg/kg, 6 h; baseline: vehicle).
For `O=C(Nc1ccc(C(F)(F)F)cc1Cl)c1cc(Cl)ccc1O`, tumour growth read “inhibited” (SCID mice CWR22Rv1 xenograft; intraperitoneal, 25 mg/kg, 3 weeks).
For `C[C@@H](O)[C@@H]1NC(=O)[C@H](CCCCN)NC(=O)[C@@H](Cc2ccc(NC(N)=O)cc2)NC(=O)[C@H](Cc2ccc(NC(=O)[C@@H]3CC(=O)NC(=O)N3)cc2)NC(=O)[C@H](NC(=O)[C@H](Cc2ccc(Cl)cc2)NC(=O)CN2CCN(CC(=O)O)CCN(CC(=O)O)CCN(CC(=O)O)CC2)CSSC[C@@H](C(=O)N[C@H](Cc2ccc(O)cc2)C(N)=O)NC1=O` [gallium-68 labelled], “highest lesion SUVmax” read at most 50 (dynamic PET/CT; neuroendocrine tumour patients; 20 to 30 min post-injection).
For `COc1cc(/C=C/C(O)=C/C(=O)/C=C/c2ccc(O[C@@H]3O[C@H](C(=O)O)[C@@H](O)[C@H](O)[C@H]3O)c(OC)c2)ccc1O`, IκB staining read “increased” (immunohistochemistry; HCT-116 (KRAS mutant, TP53 null), mouse xenograft, tumour; ip, 90 mg/kg, day 21, not statistically significant; baseline: control mice).
`COc1cccc(OCCN2CCC[C@H](CN3CCc4cc(OC)c(OC)cc4CC3=O)C2)c1` — result for firing rate: “no effect” (VTA dopamine neurons, stress-naive female mice; intraperitoneal, 1 mg/kg; baseline: baseline).
`CC[C@H]1[C@@H](O)[C@@H]2[C@H](CC[C@]3(C)[C@@H]([C@H](C)CCOS(=O)(=O)[O-])CC[C@@H]23)[C@@]2(C)CC[C@@H](O)C[C@@H]12.[Na+]`: “whole-body lean mass” 29.1 ± 0.6% (EchoMRI; ob/ob NASH mouse model; oral, 10 mg/kg once daily, before treatment, baseline of 8 week study; baseline: body weight).
Under c-MET level, `N#Cc1cccc(-c2ccc(=O)n(Cc3cccc(-c4ncc(OCC5CCN(CC(=O)NCCOCCNc6ccc7c(c6)C(=O)N(C6CCC(=O)NC6=O)C7=O)CC5)cn4)c3)n2)c1` (stereo not shown) is recorded as “inhibited” (immunohistochemistry; BALB/c nude mice, Hs746T xenograft; oral, 40 mg/kg).
Under “log2 fold change”, `C=C(c1ncc(C(=O)O)cn1)c1cc2c(cc1C)C(C)(C)CCC2(C)C` is recorded as -0.46 (RNA sequencing, measured: Alb mRNA; rat, brain; dose not given, 24 h, single dose; baseline: vehicle).
`CC[C@H](C)[C@H](NC(=O)[C@H](CCCCN)NC(=O)[C@H](CC(N)=O)NC(=O)CNC(=O)[C@@H](NC(=O)[C@H](C)NC(=O)[C@H](CCCNC(=N)N)NC(=O)[C@H](CC(C)C)NC(=O)[C@H](CCCCN)NC(=O)[C@H](CCCCN)NC(=O)[C@H](CCCCN)NC(=O)[C@H](C)NC(=O)[C@H](CCCCN)NC(=O)[C@@H]1CSSC[C@H](NC(=O)[C@H](CCCNC(=N)N)NC(=O)CN)C(=O)N[C@@H](CC(N)=O)C(=O)N[C@@H](CC(C)C)C(=O)N[C@@H](CC(C)C)C(=O)N1)C(C)C)C(=O)N[C@@H](CCCCN)C(=O)N[C@@H](CCC(=O)O)C(=O)N[C@H](C(=O)N[C@@H](CCCCN)C(=O)N[C@@H](CC(N)=O)C(=O)N[C@H](C(=O)N[C@H](C(=O)N[C@@H](Cc1ccccc1)C(=O)N[C@@H](CC(N)=O)C(=O)N[C@@H](CCCNC(=N)N)C(=O)O)C(C)C)C(C)C)[C@@H](C)CC`: cytokine level “decreased” (measured: TNF-α; BALB/c mice, CLP-induced sepsis, serum and lung; intraperitoneal, 5 mg/kg, 12 h post-surgery; baseline: vehicle).
For `CC=C1C(OC2OC(CO)C(O)C(O)C2O)OC=C(C(=O)OC)C1CC(=O)OCC1OC(OCCc2ccc(O)cc2)C(O)C(O)C1O` (stereo not shown), “spleen weight decrease” read 26.6% (BALB/c mouse, orthotopic colon 26 tumour; oral, 109.2 mg/kg daily, 10 days; baseline: untreated tumour group).
`Cc1cc(N)c2ccccc2[n+]1CCCCCCCCCCCCCC[n+]1c(C)cc(N)c2ccccc21`: sphere-forming cells “decreased” (NOD/SCID mice, NB12 xenograft, dissociated tumour cells; dose not given, 10 days).
With `Oc1cc2nc(c1)CNCc1cc(O)cc(n1)CNC2` the onset concentration was 100 µM (DPPH radical scavenging; tested range 1 to 1500 µM).
For `O=C([O-])CN1CCN(CC(=O)[O-])CCN(CC(=O)NC[C@H]2CC[C@H](C(=O)N[C@H](Cc3cnc4ccccc4c3)C(=O)NCCCC[C@H](NC(=O)N[C@@H](CCC(=O)O)C(=O)O)C(=O)O)CC2)CCN(CC(=O)[O-])CC1.[64Cu+2]`, the mean radioactivity was 33 ± 15 CPM (gamma counting; human, biopsy cores, pathology negative).
Under “tumour cell proliferation”, `CCc1nnc(NS(=O)(=O)c2ccc(NC(=S)NC(=O)/C=C/c3ccc(F)cc3)cc2)s1` is recorded as “decreased” (measured: Ki-67; NXS2 allograft, A/J mice, tumour; intraperitoneal, 20 mg/kg daily, 3 weeks; baseline: vehicle).
`C[C@H](NC(=O)COC(=O)[C@H](C)NC(=O)CO)C(=O)O` — result for “depolymerization rate constant”: 0.005 h⁻¹ (water; pH 4, 25 °C).
With `CCCCCC(O)C=CC1OC2OC(C1CC=CCCCC(=O)O)C2(F)F` (stereo not shown) the Emax was 69.3 ± 4.5% (platelet aggregation, agonist, light transmission aggregometry; human platelet-rich plasma).
The insulin secretion of `CC[C@H](C)[C@H](NC(=O)[C@H](Cc1ccccc1)NC(=O)[C@H](CCC(=O)O)NC(=O)[C@H](CCCCN)NC(=O)[C@H](C)NC(=O)[C@H](C)NC(=O)[C@H](CCC(N)=O)NC(=O)CNC(=O)[C@H](CCC(=O)O)NC(=O)[C@H](CC(C)C)NC(=O)[C@H](Cc1ccc(O)cc1)NC(=O)[C@H](CO)NC(=O)[C@H](CO)NC(=O)[C@@H](NC(=O)[C@H](CC(=O)O)NC(=O)[C@H](CO)NC(=O)[C@@H](NC(=O)[C@H](Cc1ccccc1)NC(=O)[C@@H](NC(=O)CNC(=O)[C@H](CCC(=O)O)NC(=O)[C@H](C)NC(=O)[C@@H](N)Cc1c[nH]cn1)[C@@H](C)O)[C@@H](C)O)C(C)C)C(=O)N[C@@H](C)C(=O)N[C@@H](Cc1c[nH]c2ccccc12)C(=O)N[C@@H](CC(C)C)C(=O)N[C@H](C(=O)N[C@@H](CCCCN)C(=O)NCC(=O)N[C@@H](CCCNC(=N)N)C(N)=O)C(C)C` is reported as about 2 fold (agonist; mouse pancreatic islets; 90 nM, 45 min, added: 16 mM glucose; baseline: high glucose alone).
For `CC(C)c1cnc(-c2cc(Cl)ccc2F)cc1Nc1ccncc1C(=O)NC(CO)CO`, the inhibition was 53 to 81% (SMAD2/3 phosphorylation, flow cytometry; human patients, peripheral monocytes; 250 and 375 mg, alone or with enzalutamide).
For `Cc1cc2c(cc1C1(c3ncc(C(=O)O)cn3)CC1)C(C)(C)CCC2(C)C`, “log2 fold change” read -1.2 (RNA sequencing, measured: Scd1; rat, brain; dose not given, 24 h; baseline: vehicle).
`C[C@@H](O)[C@H](N)C(=O)N1CCC[C@H]1C(=O)NCC(=O)NCC(=O)O`: “ΔG‡ at 298.15 K” 22.2 ± 1.91 kcal/mol (diketopiperazine formation, Arrhenius plot, ESI-MS; 1-propanol; 70, 80, 90 °C, 0.5% acetic acid).
`CCCCCCCCCCCCCCCC(=O)N[C@@H](CCCCN)C(=O)N[C@@H](CCCCN)C(=O)N[C@@H](CO)C(=O)N[C@@H](CCCNC(=N)N)C(=O)N[C@@H](C)C(=O)N[C@@H](CC(C)C)C(=O)N[C@@H](Cc1ccccc1)C(N)=O` — result for “mean occlusion time”: 40 min (guinea pig; intravenous infusion, above 0.05 mg/kg, 10 min infusion, maximum 60 min).
`CC(=O)N[C@@H](CC(N)=O)C(=O)NCC(=O)N[C@@H](CCCNC(=N)N)C(=O)N[C@@H](C)C(N)=O` — result for “rate constant succinimide to β-Asp”: 1.06 h⁻¹ (1H NMR; sodium phosphate buffer 50 mM; pH 7.4, 46 °C).

Repeated from above:
Under protein level, `COc1cc(O)c(Cl)cc1/C=C/C(=O)c1ccc(C(F)(F)F)cc1` is recorded as “increased” (immunofluorescence, measured: ZO-1; mouse LPS acute lung injury, lung; po, dose not given).
For `O=C(NCCCCc1ccccc1)n1c(=O)oc2cc(-c3ccc(F)cc3)ccc21`, “lung ceramide levels” read “increased” (measured: ceramide d18:1/14:0, d18:1/16:0, d18:1/18:0; mouse, lung; intraperitoneal, 10 mg/kg, 3 h).
The blood glucose of `COc1ccc(C2CC(c3ccc(C)cc3)=Nc3ccccc3S2)cc1` (stereo not shown) is reported as 373 ± 4.11 mg/dL (Wistar rat, STZ-induced diabetes; oral, 10 mg/kg once daily, day 1).
With `CC(C)(O)c1ccc(N2Cc3c(ccnc3-c3ccc(F)cc3OCC(F)(F)F)C2=O)cc1` the glucosylceramide level was 50 ± 4% (mouse, plasma; 300 mg/kg, 6 h; baseline: vehicle).
